Measured values pooled from the literature.
± gives the spread as reported.

For `COC(=O)CC[C@@H](NC(=O)[C@@H](Cc1ccc(OP(=O)(O)O)cc1)NC(=O)[C@@H](Cc1ccccc1)NC(=O)[C@@H](Cc1ccccc1)NC(=O)Cc1ccc2ccccc2c1)C(=O)OC`, the viability was 11% (SAOS-2; MTT; 10 µM).
`CO[C@H]1N(OC)c2ccccc2[C@@]12CN=C(Nc1cc(C(F)(F)F)cc(C(F)(F)F)c1)S2` (relative stereo) gave a sub-G1 cells of 27.9 fold (HCT-116; PI flow cytometry; concentration not given, 48 h; relative to: untreated).
`COc1cc(CNC(=O)C[C@H](C)CCC=C(C)C)ccc1OCc1cn(-c2cccc(C(F)(F)F)c2)nn1` gave a growth percent of 73.6% (CAKI-1; SRB; 10 µM, 48 h).
`N=C(N/N=C/c1cc2ccccc2c2ccccc12)N/N=C/c1cc2ccccc2c2ccccc12` has a selectivity ratio of 0.9 (PANC-1; crystal violet; 72 h; relative to: IC50 hTERT-HPNE over IC50 PANC-1).
`O=Cc1c(O)ccc2ccccc12`: mRNA level “increased” (hCMEC/D3; qPCR, item: KLF4, KLF2; 25 µM, 12 h; relative to: control).
For `CC(=O)Oc1ccccc1C(=O)O`, “minimum effective concentration” read > 300 µM (hiPSC cardiac tissues 3D; active force; 15 min per concentration, paced at 1 Hz serum-free).
With `COC(=O)CCC(=O)Oc1ccc(/C=C/C(=O)CC(=O)/C=C/c2ccc(O)c(OC)c2)cc1OC` the inhibition was 71.8% (MHCC97H; cell growth or viability, MTT; 100 µg/mL, 96 h).
`[Cl-].[Cl][Ru-]1[S+]=C(N2CCCC2)N[N+]1=Cc1ccc(N(c2ccccc2)c2ccccc2)cc1.c1ccccc1` — result for colony formation: “inhibited” (HeLa S3; 10 µM, 24 h, then 10 days growth).
With `CCCCCCCCC=CCCCCCCCC(=O)OCC1OC(n2ccc(N)nc2=O)C(F)(F)C1O` (stereo not drawn) the IC50 ratio was 1.7 fold (L1210/L5 (murine leukaemia); cell growth, cell counting; 72 h; relative to: compound over gemcitabine, higher = less active).
`CCN1CCN(c2ccc(Nc3ncc(C)c(Nc4ccc5cn[nH]c5c4)n3)cc2OC)CC1` has an apoptotic cells of 59.9% (PC-9; annexin V-FITC/PI flow cytometry; 3 µM, 24 h).
For `CC(C)(C)c1nc(-c2cccc(NS(=O)(=O)c3c(F)cccc3F)c2F)c(-c2ccnc(N)n2)s1.Cc1[nH]c2ccccc2c1CCNCc1ccc(/C=C/C(=O)NO)cc1`, “cells in G2/M phase” read 3.09% (C13; flow cytometry; concentration not given, 48 h, concentration about IC50).
The resistance factor of `CC(C)c1cccc(C(C)C)c1N1CCN(c2c(C(C)C)cccc2C(C)C)C1=[Se].[Cl][Ag]` is reported as 0.5 (A2780 ADR; MTT; relative to: A2780 ADR over A2780).
The necrotic cells of `Cc1ccc(C(C)C)cc1.[Cl-].[Cl][Ru+].[Ru+].c1ccc(-c2cn(CCCCOc3ccccc3-c3nc4ccccc4s3)nn2)nc1` is reported as 5.73% (MCF7; annexin V/PI flow cytometry; 4 µM, 24 h).
The growth percent of `COc1cc(CNC(=O)C[C@H](C)CCC=C(C)C)ccc1O` is reported as 81.9% (CAKI-1; SRB; 10 µM, 48 h).
`CC(C)c1cccc(C(C)C)c1-n1c(Cl)c(Cl)n(-c2c(C(C)C)cccc2C(C)C)c1=[Se].[Cl][Ag]` gave a resistance factor of 0.5 (A2780 ADR; MTT; relative to: A2780 ADR over A2780).
For `COc1cc(CN2CCN(c3ccccc3[N+](=O)[O-])CC2)c2cc3[n+](cc2c1O)CCc1cc2c(cc1-3)OCO2`, the therapeutic index was 27.6 (Ca-Ski and MDCK; SRB; 48 h; relative to: CC50 MDCK over IC50 Ca-Ski).
`CC/C=C\C/C=C\C/C=C\C/C=C\C/C=C\C/C=C\CCC(=O)Nc1ccn(C2OC(CO)C(O)C2(F)F)c(=O)n1` (stereo not drawn) gave a TGI of 22.9 µM (UACC-257; NCI60 screen).
`CCN(CC)CC(=O)Nc1cccc(-n2cc(-c3ccc4ccc(-c5cn(-c6cccc(NC(=O)CN(CC)CC)c6)nn5)cc4c3)nn2)c1`: “HRE reporter activity” 14.8% (RCC4; luciferase reporter; 10 x IC50, 4 h, hypoxia; relative to: hypoxic untreated).
Under “minimum effective concentration”, `CCOc1ccccc1OCCN[C@H](C)Cc1ccc(OC)c(S(N)(=O)=O)c1` is recorded as 3 µM (hiPSC cardiac tissues 3D; active force; 15 min per concentration, paced at 1 Hz serum-free).
`COc1cc(CNC(=O)C[C@H](C)CCC=C(C)C)ccc1OCc1cn(-c2ccccc2[N+](=O)[O-])nn1` has a growth percent of 68.4% (SK-OV-3 ovarian cancer cells; SRB; 10 µM, 48 h).
`Nc1ncc(-c2cnn(C3CCNCC3)c2)cc1-c1nc2ccc(O)cc2o1` — result for phosphorylation: “not detected” (HEL 92.1.7 (JAK2 V617F); western blot, item: STAT3 and STAT5; 10 µM, 48 h).
Under “alkaline phosphatase activity”, `CC(=C(c1ccc(O)cc1)c1ccc(Cl)cc1)c1ccc(Cl)cc1` is recorded as 3.91 ± 1.4 (Ishikawa; estrogenic activity, agonist; 100 nM, 72 h, unit not given; relative to: DMSO).
`COc1cc(CNC(=O)C[C@H](C)CCC=C(C)C)ccc1OCc1cn(-c2ccc(F)cc2)nn1` has a growth percent of 55.6% (HOP-92; SRB; 10 µM, 48 h).
Under “cells in %G0-G1 phase”, `COc1ccc(C=C2SC(N3N=C(c4cccs4)CC3c3ccc(F)cc3)=NC2=O)cc1` (stereo not drawn) is recorded as 40.8% (T47D; PI flow cytometry; concentration not given, 24 h).
The growth percent of `COc1cc(CNC(=O)C[C@H](C)CCC=C(C)C)ccc1OCc1cn(-c2ccccc2F)nn1` is reported as 4.63% (HOP-92; SRB; 10 µM, 48 h).
For `C=C1[C@H](O)CC(=C/C=C2\CCC[C@]3(C)[C@@H]([C@H](C)CCCC)CC[C@@H]23)C[C@H]1O`, the EC50 ratio was 200 (rat osteosarcoma cells; reporter gene, luciferase, item: CYP24A1 (24-hydroxylase) promoter; relative to: compound over 1α,25-dihydroxyvitamin D3).
For `Cc1nn(-c2ccc(S(=O)(=O)N[C@H](CO)CC(C)C)cc2)c2nn3nnnc3nc12`, the apoptotic cells was 32.4 ± 3.75% (HT-29; AO/EB staining; 2 µM, 24 h).
For `CCCCCCCCCCCCCCCCCCCCCCCCCCCCCCOC(=O)/C=C/c1ccc(O)cc1`, “nitric oxide production” read “inactive” (J774.2; inhibitor; concentration not given, with: LPS).
`CCC(C(=O)O)C1CCC(C)C(C(C)C(O)C(C)C(=O)C(CC)C2OC3(C=CC(NCc4cn(COC(=O)C(C)(C)C)nn4)C4(CCC(C)(C5CCC(O)(CC)C(C)O5)O4)O3)C(C)CC2C)O1` (stereo not drawn) has a selectivity ratio of 3.1 (HMLER; cell proliferation; relative to: IC50 CD24high/CD44low over IC50 CD24low/CD44high).
`N=C(N/N=C/c1ncc[nH]1)N/N=C/c1ncc[nH]1` gave a selectivity ratio of 18.6 (PANC-1; crystal violet; 72 h; relative to: IC50 IMR-90 over IC50 PANC-1).
The growth of `CC(=O)OC[C@H]1O[C@@H](Sc2sc(C(=O)c3ccc(C)cc3)c(N)c2-c2nc3ccccc3s2)[C@H](OC(C)=O)[C@@H](OC(C)=O)[C@@H]1OC(C)=O` is reported as 58.8% (HOP-92; SRB; 10 µM, 48 h; relative to: untreated).
The inhibition of `O=C(NCCCNc1n[n+]([O-])c2ccccc2[n+]1[O-])C(F)(F)F` is reported as 80 to 90% (HUVEC and fibroblast co-culture; tube formation; 20 µM, 11 d).
With `N=C(N/N=C/c1cncnc1)N/N=C/c1cncnc1` the selectivity ratio was 0.8 (PANC-1; crystal violet; 72 h; relative to: IC50 IMR-90 over IC50 PANC-1).
`CC(=O)Oc1ccccc1C(=O)[O][Pt]([NH2])([NH2])([Cl])([Cl])[O]C(=O)C(Cl)Cl` — result for “depolarised mitochondria cells”: ~15% (PSN1; 1 µM, 24 h).
For `FC(F)(F)c1ccnc(-c2cc(C(F)(F)F)ccn2)c1.FC(F)(F)c1ccnc(-c2cc(C(F)(F)F)ccn2)c1.[Cl-].[Cl-].[Ru+2].c1csc(-c2ccc(-c3ccc(-c4nc5c6cccnc6c6ncccc6c5[nH]4)s3)s2)c1`, the phototherapeutic index was 170 (SK-MEL-28; hypoxia, with: visible light).
For `CCC(=C(c1ccc(Cl)cc1)c1ccc(OCCCN(C)C)cc1)c1ccc(OC)cc1`, the GI50 was 0.83 µM (HOP-92; cell growth or viability, SRB).
`C=CC(=O)Oc1ccc(Cl)cc1C(=O)Nc1ccc([N+](=O)[O-])cc1Cl` — result for cell growth: “decreased” (DU-145 (AR-negative); concentration not given, 3 days, dose-dependent).
With `COc1cc(CNC(=O)C[C@H](C)CCC=C(C)C)ccc1OCc1cn(-c2cccc([N+](=O)[O-])c2)nn1` the growth percent was 86.2% (SK-MEL-5 melanoma cells; SRB; 10 µM, 48 h).
Under “cells in %G2/M phase”, `COc1ccc(C2=NN(C3=NC(=O)C(=Cc4ccc(O)cc4)S3)C(c3ccc(F)cc3)C2)cc1` (stereo not drawn) is recorded as 5.24% (T47D; PI flow cytometry; concentration not given, 24 h).
`C(=C/c1ccccc1)/c1ccccc1` gave an EC50 of > 50 µM (KG-1a; caspase-3 activity, flow cytometry; 24 h).
`COc1cc(CNC(=O)C[C@H](C)CCC=C(C)C)ccc1OCc1cn(-c2ccc(Br)cc2)nn1` gave a growth percent of 28.8% (CAKI-1; SRB; 10 µM, 48 h).
For `CCc1nnc(NS(=O)(=O)c2ccc(NC(=S)NC(=O)/C=C/c3ccc(F)cc3)cc2)s1`, colony density read “decreased” (SK-N-AS; 10 µM, 2 weeks).
Under “minimum effective concentration”, `O=C(CCCN1CCC(O)(c2ccc(Cl)cc2)CC1)c1ccc(F)cc1` is recorded as 0.3 µM (hiPSC cardiac tissues 3D; active force; 15 min per concentration, paced at 1 Hz serum-free).
For `CCN(CC)C1CCN(Cc2cc(C#CCNc3ccccc3)cc(I)c2O)CC1`, the onset concentration was 50 µM (NUGC-3 p53 Y220C; caspase 3/7 apoptosis; 6 h).
Under “alkaline phosphatase activity”, `CCC(=C(c1ccc(Cl)cc1)c1ccc(OCCN(CC)CC)cc1)c1ccc(OC)cc1` is recorded as 1.73 ± 0.71 (Ishikawa; estrogenic activity, agonist; 100 nM, 72 h, unit not given; relative to: DMSO).
`N=C(N/N=C/c1cccs1)N/N=C/c1cccs1` has a selectivity ratio of 1 (PANC-1; crystal violet; 72 h; relative to: IC50 IMR-90 over IC50 PANC-1).
`COc1ccc(NC(=O)COc2ccc(/C=C/C(C)=N/O)cc2OC)cc1` — result for “IL-1β expressing cells”: 48.2% (SH-SY5Y; flow cytometry; 2.5 µM, with: amyloid beta 10 µM).
For `O=C1OCC2=C1C(c1cccc(Br)c1)C1=C(N2)C(=O)c2ccccc2C1=O` (stereo not drawn), “cells in G2/M phase” read 91.7% (SK-LU-1 cells; PI flow cytometry; 0.32 µM, 24 h).
With `COc1cc(CNC(=O)C[C@H](C)CCC=C(C)C)ccc1OCc1cn(-c2ccc([N+](=O)[O-])cc2)nn1` the growth percent was 80.1% (SK-OV-3 ovarian cancer cells; SRB; 10 µM, 48 h).
For `CC(=O)OC[C@H]1O[C@@H](Sc2sc(C(=O)c3ccc(Br)cc3)c(N)c2-c2nc3ccccc3s2)[C@H](OC(C)=O)[C@@H](OC(C)=O)[C@@H]1OC(C)=O`, the growth was 81.7% (HOP-92; SRB; 10 µM, 48 h; relative to: untreated).
With `COc1ccc([C@@H]2CC(=O)c3c(O)cc(O[C@@H]4O[C@H](CO[C@@H]5O[C@@H](C)[C@H](O)[C@@H](O)[C@H]5O)[C@@H](O)[C@H](O)[C@H]4O)cc3O2)cc1O` the viability was 60.9% (A549; cell growth or viability, MTS; 100 µg/mL, 24 h).

Excerpt of the above:
Under “minimum effective concentration”, `O=C(CCCN1CCC(O)(c2ccc(Cl)cc2)CC1)c1ccc(F)cc1` is recorded as 0.3 µM (hiPSC cardiac tissues 3D; active force; 15 min per concentration, paced at 1 Hz serum-free).
For `CCN(CC)C1CCN(Cc2cc(C#CCNc3ccccc3)cc(I)c2O)CC1`, the onset concentration was 50 µM (NUGC-3 p53 Y220C; caspase 3/7 apoptosis; 6 h).
Under “alkaline phosphatase activity”, `CCC(=C(c1ccc(Cl)cc1)c1ccc(OCCN(CC)CC)cc1)c1ccc(OC)cc1` is recorded as 1.73 ± 0.71 (Ishikawa; estrogenic activity, agonist; 100 nM, 72 h, unit not given; relative to: DMSO).
`N=C(N/N=C/c1cccs1)N/N=C/c1cccs1` has a selectivity ratio of 1 (PANC-1; crystal violet; 72 h; relative to: IC50 IMR-90 over IC50 PANC-1).
